# Assay results pooled from the literature.
# Every numbered part comes from another study and shows a few of its results, in no order.

# Block 1 — method: RNA Bind-n-Seq; form: RNA; matrix: in vitro; tested at: 1 µM; notes: whole 134-nt RNA, ends assumed; with: 150 mM KCl; reference: input library; reading: higher = stronger binding
# Target: Ras GTPase-activating protein-binding protein 1, C-terminal RGG region (G3BP1, Homo sapiens, UniProt Q13283)
# Sequence of UniProt Q13283 (whole entry, looked up): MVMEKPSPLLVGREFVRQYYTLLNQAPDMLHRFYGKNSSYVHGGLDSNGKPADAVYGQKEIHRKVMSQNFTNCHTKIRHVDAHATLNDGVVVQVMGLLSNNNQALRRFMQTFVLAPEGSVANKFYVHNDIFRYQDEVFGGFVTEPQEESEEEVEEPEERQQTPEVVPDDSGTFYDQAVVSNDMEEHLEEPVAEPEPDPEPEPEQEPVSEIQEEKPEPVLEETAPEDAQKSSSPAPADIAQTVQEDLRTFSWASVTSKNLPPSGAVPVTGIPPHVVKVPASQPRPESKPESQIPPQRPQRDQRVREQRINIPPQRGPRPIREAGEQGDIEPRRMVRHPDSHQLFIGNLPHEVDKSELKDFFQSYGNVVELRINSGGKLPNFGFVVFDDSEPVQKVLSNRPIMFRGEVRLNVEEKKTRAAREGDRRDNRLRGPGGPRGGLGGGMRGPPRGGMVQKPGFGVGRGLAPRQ
Oligonucleotide,log2 enrichment
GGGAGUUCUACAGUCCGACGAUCAAGUCCUGUGCUACACAUCGUAUGUACCGAAUCGGGCCCCGGCCCCGGGCCCCGGGGAAAGUAUUAUGUUACGCCGUUCGGAUCUGCACUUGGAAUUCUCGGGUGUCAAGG,-2.17
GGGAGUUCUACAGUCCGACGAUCGCAGGAAGUAAAAACAAAUGGAAAUGCUUCGGAUAGUGGCAGGAGUGGGGGUUGCUAAGGAAAGGGUGGGAUGGGAGUGGGUAAAGAGUUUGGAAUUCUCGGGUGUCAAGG,0.96
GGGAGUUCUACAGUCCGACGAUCUCAAGUCCUGUGCUACACAUCGUAUGUACCGAAUCGGAAAAAGGAAAGGAAAGGAAAGUAUUAUGUUACGCCGUUCGGAUCUGCACUUCCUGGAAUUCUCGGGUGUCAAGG,-1.82
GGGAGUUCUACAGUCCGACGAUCUCCUGUGCUACACAUCGUAUGUACCGAAUCGGGGUUUGGGGAAAGGGGUUUUUUUGGGGAAAGUAUUAUGUUACGCCGUUCGGAUCUGCAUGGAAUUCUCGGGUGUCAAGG,2.76
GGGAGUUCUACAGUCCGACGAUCCCUGUGCUACACAUCGUAUGUACCGAAUCGGGGAAAAAGGGGUUUUUGGGGAAAAAGGGGAAAGUAUUAUGUUACGCCGUUCGGAUCUGCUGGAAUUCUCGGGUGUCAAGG,0.136
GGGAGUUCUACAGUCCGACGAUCUUUCUCCAUUGCAGGAAGUUGGCAGUAUCAUCGGAAAGGUAAGACAAUUUCACUUCAACUUCAAUUACCAUUUAGUAAUUCUGGAUUGAAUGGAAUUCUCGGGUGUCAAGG,-1.71
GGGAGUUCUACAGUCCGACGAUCUUCCGCUGUCUUUUCUGUCUACAGUUUGCGAUCCCCGCGUCCAGGAUGGAGCAGCUGAACGAACUGGAGCUGCUGAUGGAGAAGAGUUUUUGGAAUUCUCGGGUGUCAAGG,-0.796
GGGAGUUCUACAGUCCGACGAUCGCAGGAAGUAAAAAGAAAUGGAAAUGCUUCGGAUAGUGGCAGGGGUGGGGGUUGCUAAGGAAAGGGUGGGAUGGGAGUGGGUAAAGAGUUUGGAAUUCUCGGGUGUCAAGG,2.01
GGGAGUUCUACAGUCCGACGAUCUCCUGUGCUACACAUCGUAUGUACCGAAUCGGGGAAAAAGGGGUUUGGGGUUUUUGGGGAAAGUAUUAUGUUACGCCGUUCGGAUCUGCAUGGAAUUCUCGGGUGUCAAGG,2.66

# Block 2 — method: protein binding microarray; form: double-stranded DNA, one strand shown; matrix: in vitro; tested at: not given; reference: not given; reading: higher = stronger binding
# Target: Histone acetyltransferase KAT6A, winged helix 1, GST fusion (KAT6A, Homo sapiens, UniProt Q92794, residues 1-85)
# Notes: 8-mer, flanks averaged, mean of 2 arrays, mostly near background
# Residues (chain): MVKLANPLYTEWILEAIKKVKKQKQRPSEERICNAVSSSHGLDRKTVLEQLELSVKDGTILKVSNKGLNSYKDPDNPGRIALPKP
Oligonucleotide,E-score
ATTCACCG,0.212
AATCCGGA,0.0156
GGTAGCGA,0.101
CAGAACAG,-0.149
AGATGATG,-0.145
GAAGCCTC,-0.0268
ACCCTCGC,0.0961
GGACCTTA,0.0325
ACCTGCTA,-0.00376
AGTTTAGA,-0.179
CTTGGTGA,-0.126
CTGTAAAG,-0.0847
CCCCTTCG,-0.0496
ACTTGCGA,-0.127
CCATGAGG,0.0716
AAGCGGCG,0.415

# Block 3 — method: RNA Bind-n-Seq; form: RNA; matrix: in vitro; tested at: 365 nM; reference: no-protein control; reading: higher = stronger binding
# Target: RNA binding protein fox-1 homolog 2, RRM domain, GST-SBP tag (RBFOX2, Homo sapiens, UniProt O43251-10, residues 100-194)
# Notes: natural RNA segment, single round, ends assumed
# Construct (chain): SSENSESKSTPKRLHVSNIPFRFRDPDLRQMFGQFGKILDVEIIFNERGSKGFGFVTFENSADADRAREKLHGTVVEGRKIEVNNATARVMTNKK
Oligonucleotide,RBNS enrichment (R)
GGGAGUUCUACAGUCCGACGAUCAAAGAUGCACUUUAGGAAACGAAAUAUUUCCUAAAUAACCAGGCUUCCACAUUGUACAGAAUGAGCAGUCAUGUAAUGAAUGGCUCUACUCAGAUUGACCAUAUGGGUUUUGGAAUUCUCGGGUGCCAA,0.301
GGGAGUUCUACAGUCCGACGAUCCCCUUGCAGUGAUGUCCGUUUGUCCAGAUUCUGCCAGUCAUCACUGGACACGUCUCCUCGCAGCUGCCCUAGCAAGGGGAGACAUUGUGGUAGCUAUCAGACAUGGACAGUGGAAUUCUCGGGUGCCAA,0.259
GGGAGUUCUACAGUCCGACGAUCGGAAGUGAGAAUCCCUGACAUAUAGCUUUCUUGGAGAUCCCAACUCUCAUUCUUGGUGCAACUGGCUUCCAGCUCUCCAGCAGUCACUCUCCUAGGUGCAUGAUUCAGUGUGGAAUUCUCGGGUGCCAA,1.87
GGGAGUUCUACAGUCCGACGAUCCCACAGCUAAUUUACCCCUGGAGAUGGGCUCAGGACAGCUGCCUACCCUAGUCUCACCAAUCGUGGAUCUAACUUUGCUCCUGAGACUGGACAGACUGCAGGACAAUUCCUGGAAUUCUCGGGUGCCAA,0.304
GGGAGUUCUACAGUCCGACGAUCUAGAUAAGUGGGACGGUAAAGACAAAGGCGUGGAAGAGAAAGUCAGCGCUUCCUUCCUGGGAAGCCUGUCGUCUGGGUUAAUCUGUUGAUGUAUCUUCAUUGUCAUCUCUUGGAAUUCUCGGGUGCCAA,0.268
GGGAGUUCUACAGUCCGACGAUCGGAAAAGCAUUUUUCAAUAUAUUGAACUUUUGUACUGAAUUUUUUUGUAAUAAGCAAUCAAGGUUAUAAUUUUUUUUAAAAUAGAAAUUUUGUAAGAAGGCAAUAUUAACUGGAAUUCUCGGGUGCCAA,9.33
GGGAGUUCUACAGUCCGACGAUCUAGGACUUAACCAAAUAACCAGUCCAUGAAUAAGCAACCCCAUUACCACAGACAGUACCCACGCUACCAGUCUGAUUAUAAAGGGAGACACUUUAUUUUUUCACAAUUAAUGGAAUUCUCGGGUGCCAA,0.532
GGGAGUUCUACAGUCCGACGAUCGCCACGUUGUCAUUGUGAGUCUAUAGCUUGACUCCUUGGAGAACAAUAUUCAUUUGGUUGUGGAGACUGAUUUGCUGGGAGAAAUCUGUCCUGUUACUUUCUGGUCAUCCUGGAAUUCUCGGGUGCCAA,0.651

# Block 4 — method: protein-binding microarray; form: double-stranded DNA, one strand shown; matrix: in vitro; tested at: 250 nM; notes: 60-bp whole probe; with: salmon DNA 0.4 mg/ml; reference: random background probes; reading: higher = stronger binding; shared flanks, not repeated: GCCTAGCAC … GTCTTGATTCGCTTGACGCTGCTG
# Target: Interferon regulatory factor 5, full length, phosphomimetic (IRF5, Homo sapiens, UniProt Q13568-2, residues 1-514, K96S/S451D/S453D/S456D/S462D)
Oligonucleotide,log fluorescence
TTAGGGCTGGGTCTCGGTTAGTGCTAG,-0.022 z-score
CAAAGAAAAAGAAAAAAAAAGGTGCTA,0.901 z-score
GACGGACCGCTTATCCTGACGTGCTAG,-0.419 z-score
TTAGATTTCAGTTCCGAATAGTGCTAG,2.15 z-score
TTAGATCTCAGTCTCGGTTAGTGCTAG,1.14 z-score
GACGGACTGGACTATCGGGGCGTGCTA,0.265 z-score
TTAGACCTGGGGTATCGATTAGTGCTA,1.85 z-score
GACGATATCGGATATCGAGACGTGCTA,1.94 z-score
GACGGTCTCGGACTGGGGTCGTGCTAG,-0.429 z-score
GGAGAGTTCCAGGAGGTCGAGTGCTAG,-0.412 z-score
GACGGCATCCTTCTCCTGACGTGCTAG,-0.399 z-score
GACGGTTTCGGTTCCTGGACGTGCTAG,9.44 z-score
TCAACTTGTCTTTTCATACTGTGCTAG,0.902 z-score
GACGGTATCCTTTTCCTGAAGTGCTAG,0.294 z-score
GACGATTTCAGTTCCGAGATGTGCTAG,1.44 z-score
CTTTCTTTATGCACTCTTTACGTGCTA,1.99 z-score
GACGATTTCGGGTTTCGAGACGTGCTA,5.24 z-score
TTAGATTACGGGACTGGATTAGTGCTA,-0.289 z-score
TTAGGTCTCCTTTTCCTGTAGTGCTAG,0.468 z-score

# Block 5 — method: universal PBM; form: double-stranded DNA, one strand shown; matrix: in vitro; tested at: not given; reading: higher = stronger binding
# Target: Sal-like protein 4, full length isoform B (SALL4, Homo sapiens, UniProt Q9UJQ4-2, residues 1-616)
# Notes: 8-mer, flanks averaged, mean of replicates
Oligonucleotide,E-score
CGACATCA,-0.0109
AACCGCCT,-0.0673
ACATTACT,0.245
CAAACCAC,-0.0152
CTTGGGGA,0.0243
TATCAGAA,0.114
AATCTCAC,-0.0049
AGGGAACC,-0.22
CAGACGGC,-0.409
GTATACCA,0.0291
ATTGGTCC,0.078
AGTGGGAG,-0.145
CCCCCCTA,-0.267
AACGAAAT,0.226
AGAATCAC,-0.0531
GCAGAGCC,-0.35
GGTTTGGA,-0.0857
ATGGCGTA,0.0449
CGCATGGC,-0.11
CAAAACTA,0.225
GGCACTAA,-0.0583

# Other studies, line by line
Substance,target,assay,test system,conditions,how to read,measurement,value
"PhoQ, residues 284 288 289 292 302 303 NLCILV","PhoP, residues 12 14 15 18 19 HLGGL (Escherichia coli, UniProt P23836)","Sort-seq, refers to: YFP reporter",E. coli,"PhoQ-PhoP variant library, with: 10 µM Mg2+","reference: high Mg2+ state, higher = stronger signaling",fold induction,19.4

# Repeated from above (block 4):
Oligonucleotide,log fluorescence
CAAAGAAAAAGAAAAAAAAAGGTGCTA,0.901 z-score
GACGGACCGCTTATCCTGACGTGCTAG,-0.419 z-score
TTAGATTTCAGTTCCGAATAGTGCTAG,2.15 z-score
TTAGATCTCAGTCTCGGTTAGTGCTAG,1.14 z-score
GACGGACTGGACTATCGGGGCGTGCTA,0.265 z-score
TTAGACCTGGGGTATCGATTAGTGCTA,1.85 z-score
GACGATATCGGATATCGAGACGTGCTA,1.94 z-score
GACGGTCTCGGACTGGGGTCGTGCTAG,-0.429 z-score
GGAGAGTTCCAGGAGGTCGAGTGCTAG,-0.412 z-score
GACGGCATCCTTCTCCTGACGTGCTAG,-0.399 z-score
GACGGTTTCGGTTCCTGGACGTGCTAG,9.44 z-score
TCAACTTGTCTTTTCATACTGTGCTAG,0.902 z-score
